Published values of several laboratories.
Protocols differ between the studies behind these lines. ± gives the spread as reported.

| Structure (SMILES) | cell line | test | conditions | IC50 |
| --- | --- | --- | --- | --- |
| CC(C)=CC1OC(C)(C)C2C=C3C(=O)C(Cl)=CC(O)C3C3C(O)C4OC4C(=O)C132 (stereo not drawn) | BT-474 | cell growth or viability, MTS | – | 8.11 µM |
| COc1ccc2c(c1)/C(=N/NC(N)=S)C(=O)N2CCn1cnc2c(N)ncnc21 | BALB/3T3 clone A31 | cell growth or viability, SRB | 72 h | 23.3 µg/mL |
| CCn1nc(Cl)c2c1-c1cnc(N)c(c1)O[C@H](C)c1cc(F)ccc1-c1nn(C)cc1C2 | A-431 | cell growth or viability | – | 3.65 µM |
| Cc1ccc([N+](=O)[O-])cc1S(=O)(=O)N(C)/N=C/c1cnc2ccc(Br)cn12 | A498 | MTS | NCI60 panel | 0.027 µM |
| O=S(=O)(N[C@@H]1CCC[C@H](N2c3ccccc3Oc3ccccc32)[C@H]1O)c1ccc(OC(F)(F)F)cc1 | T98G | cell growth or viability | 72 h | 8.4 µM |
| NC(=O)c1ccc(-c2ccccc2Cl)c2c3c([nH]c12)CC[C@H](N)C3 | RBE | cell growth or viability | – | 0.00386 µM |
| CNS(=O)(=O)Nc1nccc(Cc2c(C)c3ccc(Oc4ncccc4F)cc3oc2=O)c1F | OCI-AML-5 | cell viability | 7 days | 0.0193 µM |
| C=C(C)C(=O)NCCCCCCCCOCc1cn(CCCCCCCCNC(=O)C(=C)C)n[n+]1C | L929 | cell growth or viability | 72 h | 35.4 µM |
| Cn1ncc(-c2ccc3c(=O)[nH]nc(CN)c3c2)c1-c1c(F)c(Cl)cc(OC2CC2)c1C#N | NCI-H2126 | cell viability, inhibitor, CellTiter-Glo | 120 h, baseline-subtracted | 0.11 µM |
| CC(C)c1ccc(N(C)c2ccc3c(c2)OCC[C@H]3CNc2cnccc2C(=O)O)cc1 | TE-15 | cell viability, CellTiter-Glo | 7 days | ≥ 10 µM |
| COC(=O)N1c2ccc3c(nc(Cc4ccccc4)n3[C@@H]3CCC[C@@H](C(=O)O)C3)c2CC[C@@H]1C | BT-474 | cell growth or viability, ATP luminescence | 10 days | 1.33 µM |
| C=CC(=O)NCCCCCCCCCCOCc1cn(CCCCCCCCCCNC(=O)C=C)nn1 | L929 | viability, alamarBlue | 3 days | > 50 µM |
| CCOc1cncc(-c2ccc(NC(=O)C3(c4ccnc(NS(=O)(=O)C5CC5)n4)CCOCC3)nc2)n1 | NALM-33 | cell proliferation, CellTiter-Glo | 72 h, lymphoid haematological cancer | 0.003 µM |
| CS(=O)(=O)c1sc(NC(=O)Nc2ccc(Cl)cc2)c2c1C=CCC2 | PANC-1 NUPR1 knockout clone KO2 | cell viability | 72 h | 24 µM |
| C[C@H](c1ccccc1)N1C(=O)C2=Nc3ccccc3CN2C1=S | CEM/ADR5000 (P-gp overexpressing, multidrug resistant) | cell viability, resazurin | 72 h | 0.489 ± 0.016 µM |
| O=C(NCc1cc(F)cc(F)c1)[C@@]1(O)CCN(c2ccc3[nH]ccc3c2)C1=O | LXFA526 lung adenocarcinoma | colony formation, soft agar clonogenic | – | 0.16 µM |
| C=C(C)C(=O)NCCCCOCc1cn(CCCCNC(=O)C(=C)C)n[n+]1C | L929 | viability, alamarBlue | 3 days | > 50 µM |
| COc1cccc(N2C(=O)C3=Nc4ccccc4CN3C2=S)c1 | CEM/ADR5000 (P-gp overexpressing, multidrug resistant) | cell viability, resazurin | 72 h | 28.1 ± 0.972 µM |

Repeated from above:
| Structure (SMILES) | cell line | test | conditions | IC50 |
| --- | --- | --- | --- | --- |
| COC(=O)N1c2ccc3c(nc(Cc4ccccc4)n3[C@@H]3CCC[C@@H](C(=O)O)C3)c2CC[C@@H]1C | BT-474 | cell growth or viability, ATP luminescence | 10 days | 1.33 µM |
